# Measurements collected from several papers.
# Each numbered part is a random draw from the data of one study; scales do not carry over between parts.

# Set 1 — method: protein-binding microarray; molecule type: double-stranded DNA, one strand shown; medium: in vitro; concentration: 2540 nM top; notes: 60-bp whole probe; together with: salmon DNA 0.4 mg/ml; baseline: random background probes; direction: higher = stronger binding; shared flanks, not repeated: GCCTAGCAC … GTCTTGATTCGCTTGACGCTGCTG
# Target: Interferon regulatory factor 3, full length, phosphomimetic (IRF3, Homo sapiens, UniProt Q14653, residues 1-427, S386D/S396D/S398D/S402D/T404D/S405D)
# Construct (chain): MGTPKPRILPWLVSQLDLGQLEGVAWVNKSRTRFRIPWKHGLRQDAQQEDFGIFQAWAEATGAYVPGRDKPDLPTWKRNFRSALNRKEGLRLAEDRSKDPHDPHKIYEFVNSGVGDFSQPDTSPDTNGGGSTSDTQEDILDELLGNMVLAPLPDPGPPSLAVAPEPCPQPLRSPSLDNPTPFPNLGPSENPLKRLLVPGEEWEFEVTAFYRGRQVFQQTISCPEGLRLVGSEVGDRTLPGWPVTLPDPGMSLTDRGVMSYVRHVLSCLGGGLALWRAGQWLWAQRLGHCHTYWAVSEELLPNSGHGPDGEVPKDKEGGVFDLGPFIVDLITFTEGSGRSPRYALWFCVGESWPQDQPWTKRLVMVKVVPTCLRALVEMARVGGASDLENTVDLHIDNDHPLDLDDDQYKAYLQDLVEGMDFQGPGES
Strand,fitted relative affinity [z-score]
TCACCATCCTGTATGGAACTGTGCTAG,1.07
TTTGAACTGAGTATCGATTAGTGCTAG,0.297
TCAGATCTCCGAGATGCCACTGTGCTA,0.696
GACGATATCGGGACTGGACACGTGCTA,0.13
TTCATTCCTGATCTCTGGTCGTGCTAG,0.817
TTAGGTATCCTTATCCTTTTGTGCTAG,5.32
GACGGACTGCTTATCCTGAAGTGCTAG,-0.412
TCAAGTCTGCAACATGGGACTGTGCTA,-0.444
TTCCCTCTGCTCCTCTTTTTGTGCTAG,0.524
TTAGATATCGGGACTTGATTAGTGCTA,-0.143
TCATTTTTATCAATCATACTGTGCTAG,1.56
GACGATCTCAGTCTCGAGGCGTGCTAG,0.646
GCCGGTTTCGGGACTGGGGACGTGCTA,4.89
TTAGGGTTCCTTCTCCTTTAGTGCTAG,5.28
GACGGTATCGGTCACGGGACGTGCTAG,1.92
GACGCACTGGGGACTGGGGACGTGCTA,-0.83
TTAGAACTGGGGACTGGATTCGTGCTA,-0.818
TACGGTCTCGGTTTCGGGACGTGCTAG,4.01

# Set 2 — method: RNA Bind-n-Seq; molecule type: RNA; medium: in vitro; concentration: not given; baseline: input RNA pool; direction: higher = stronger binding
# Target: RING finger protein unkempt homolog, zinc fingers 1-6, GST-SBP tag (UNK, Homo sapiens, UniProt Q9C0B0, residues 30-357)
# Notes: RNA with constant flanks, human and mouse sites, ends assumed
# Shared flanks, not repeated: GGGAGUUCUACAGUCCGACGAUC … CAACAGAGGAUUGAGCAUCA
# Target sequence (chain): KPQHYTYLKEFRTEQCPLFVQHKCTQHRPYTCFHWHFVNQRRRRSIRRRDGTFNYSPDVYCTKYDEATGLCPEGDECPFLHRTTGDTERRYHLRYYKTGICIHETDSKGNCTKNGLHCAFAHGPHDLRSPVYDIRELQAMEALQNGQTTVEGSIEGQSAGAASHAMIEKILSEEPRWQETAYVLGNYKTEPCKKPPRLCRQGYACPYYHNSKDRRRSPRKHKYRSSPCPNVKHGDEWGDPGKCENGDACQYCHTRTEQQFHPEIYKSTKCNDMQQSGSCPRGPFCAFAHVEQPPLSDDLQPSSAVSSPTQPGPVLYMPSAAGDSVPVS
Strand,bound/input enrichment [ratio]
AGGGAUCAGUUUGGAUCAAGCCACUCAUUGCCUGAAGUUCAGCAACACAUGAGGGAAGAAUCACGGACUCGAGGCUAUGACCGUGACAUAGCAUUCAUCAUGGAUGACUUCCAACAUGCC,0.06
GAAUUGCAGGAUAUGAUCAAUGAAGUGGAUGCUGAUGGUAAUGGCACCAUUGACUUCCCCGAAUUUUUGACUAUGAUGGCUAGAAAAAUGAAAGAUACAGAUAGUGAAGAAGAAAUCCGU,0.607
ACUUCUUUGAAAAGUCCCAUCAAACAAAUAGCAUGGGAGCAAAAACAGAGGGGCUUUAUUUUAGAUAUGUCUAAUUUUAAGCCUGAAAAGGUAAAACAAAGGUCAUUGUCAGAAGCAAUU,0.225
ACUGGAUUCGGCAUCAUCCCUGUGGGAGGCACUUACCUCAUCCAGUCUGUUCCCGCUGAGCUCAAUAUGGAUCACACUGUUGUGCUGCAGCUGGCCGAGAAAAACGGGUAUGUGACUGUC,0.137
UAUGUGGAGACAGAAUUGAUAUUUGCACUGGCUAAAACAAACCGCCUUGCAGAAUUAGAAGAGUUCAUCAAUGGGCCAAAUAAUGCUCAUAUUCAGCAAGUUGGUGACCGUUGUUAUGAU,0.656
GAGACGACAAAAAGCUGUUUUUCCUUUUGUGACUCCAGAGCUGGAAAGCCUUCCCAGCUCCAUAGUGUCUGUACCUGUCUUGUGCUUUGGGGUGUCCUUCAUGUGGCCAUUCUGCCUGCA,0.122
AUUUUAAGUAAGCCUUUAUCUUAAUCGUGUUUCAUGUUUUUUCAGAAAACAAGCAACAUUUUUCAUUGCACAUAAACAUGUAAAAUUCUUGCAUGCCACUGGUCAUAAUGGCUUACCAGU,0.234
UACGGCAAAGGCAAGAGUAACAGCAGCGCCGUCCCGUCCGACAGCCAGGCCCGGGAGAAGUUAGCACUCUACGUGUAUGAAUAUCUGCUCCAUGUAGGAGCUCAGAAAUCGGCUCAGACA,0.0856
CUGCCAAGCUGCUGGUCCUCAAAGGAAGAUUCUAGCCUACCCCCCAGCCUUGUUCCCACAUUCCAUCACCCACCUGAGCUCACAUGCUGACCUGCCCCCCUCCUCAGCACUCACCGUGUG,0.489
AAGAAUUUCAAAGGUACUAUUGAAGAACUGGCUUCAAAUCAGUAUGUGAUUAAUGGAGAAGUAGCUAUUCUGGAUUCUACAACCAUUGAAAUCUCAGAGCUUCCCAUCCGAACGUGGACU,0.174
UUUUUUUUUCCUCUUAACUCUGUCUGCUCUUAAAGCCAGGCAACCCAGUUUGGUCUCAGGCAUAGCCUGAGCAGAUCUUAGUUUUGCCCCCACCACCAUAGUUUUGUGCUAUCCUAGUUU,6.34

# Set 3 — method: universal PBM; molecule type: double-stranded DNA, one strand shown; medium: in vitro; concentration: not given; direction: higher = stronger binding
# Target: Sal-like protein 4, full length isoform B (SALL4, Homo sapiens, UniProt Q9UJQ4-2, residues 1-616)
# Notes: 8-mer, flanks averaged, mean of replicates
Strand,E-score
AATTCATC,0.149
AACGACTG,-0.0973
GATCCCCC,-0.279
CGGGAGCA,-0.192
AAGCCCGT,-0.325
AATTTTCA,0.316
ATCATCGG,0.133
CATGTGCC,-0.0533
AATAGTAT,0.35
AACGTGCG,-0.0884
AAGACATC,-0.0116
CATAGGAC,-0.0198
GAAGCACA,0.174
AGGGCGTC,-0.211
TCTGGTAA,0.0204
GACGTGGC,-0.157
AGCAGAGC,-0.154
AACTCAGC,0.0353
GGGATTGA,-0.00848
CGCTTGCC,-0.171
CCCAATAA,0.127
TAGAACTA,0.0762
TGCCACAA,0.137
AATTAAGA,0.263
AGGACTCG,-0.131

# Set 4 — method: RNA Bind-n-Seq; molecule type: RNA; medium: in vitro; concentration: 365 nM; baseline: no-protein control; direction: higher = stronger binding
# Target: RNA binding protein fox-1 homolog 2, RRM domain, GST-SBP tag (RBFOX2, Homo sapiens, UniProt O43251-10, residues 100-194)
# Notes: natural RNA segment, single round, ends assumed
# Shared flanks, not repeated: GGGAGUUCUACAGUCCGACGAUC … UGGAAUUCUCGGGUGCCAA
# Residues (chain): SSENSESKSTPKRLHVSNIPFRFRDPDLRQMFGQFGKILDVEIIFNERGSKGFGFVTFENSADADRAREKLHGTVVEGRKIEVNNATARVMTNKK
Strand,RBNS enrichment (R)
UGGCUCAGAGCUCUUGCCCAUGAGCAGAUGUUUACAAGAGAGGAAAAGAUUGCUUGCUACGACUGCAUCAGCGUCUGCACCUGCGUAAGGAGGAAGCUCACUCACUCAAG,0.429
CAGCAGCUGCUGCAGCUGCUGCAGCCGCCUCAGUUGGAGGGACCAUUCCGGGACCUGGCCCUGGGGGUGGACAAAGUCCAAGAGAGGGUGGUGAAAGGAAAAUUGCUGGA,0.319
CUAGAAACCAAUGAGCUUUAGAUUCAUUCCUGGGUUUUUGCUUAAAAAAAAGUGAACUAAUAUAGCAUCAGGUAAGCAUUGUCACAGAGCCAAGCCUGGUAGGAUUUGUC,0.512
GAGAGGCCAGAGGAUGCUCCCCAUGCUGCCACUAUUUAUUGUGAGCCCUGGAGGCUCCCAUGUGCUUGAGGAAGGCUGGUGAGCCCGGCUCAGGACCCUCUUCCCUCAGG,0.254
CUUGUCUUAGAUAGAAAAGAGCCUUCUCCAAGAGCAAUGUCAAAACUUGGGCUGUCAUCUUUGAGCUGUUUACCAAAAUACAGACCAUUAUUGAAGAAAAACAAAUUAUC,0.75
GAAUUCUCUUGCCUUCAACAAGCACACUGACAGAGAAAAAAUGCUACUGUCUGUUGGUUCCAAUAUUCUCCCACUGCUAGAGCUUCCUGUUAAGCAAGUGUGAUCUGCAA,0.609
GAACUGCAGAAGUUUUUUUAAUGCCACUUUAACACUAAUGCACUGACAGAUUCUAAAUAUUUUGUGAGAAGAAAUGUUAAAAAUUUUUAGCUUGACAGGUUUCUAGAGUU,1.07
GACGUGCUAGCCAUUUCCAGUGUCCCAACUACUGUCAUCGUGAGGUUUUCAUCGGCUGUGCCAUUUCCCAACGUCUUUUGGGAUUUACAUCUGUCUGUGUUAAAAUAAUC,0.312
UCAUUAUAUUUCAUGUUUGACCAUUUGACUAACCAGCAGGCUUGGAGUUGAAUAGCUUUUGCUUUGCAACACUAAUCCUCACACUUAAAAUGAUUCCAUUAAUCUUACUC,0.323
UUAAAGGAACAGCAGAGUAGAAAAGAGGUUGAGAAUGUUUUCUAGCAGGCAGAAUGUGCAUACAUGUUUUCAUGAGUGUCCUUUGGGUGCUGUUUCUUUUAAAUCCUCUG,1.02
UUGCUGUGUAGUCUUGGUGUGGAAAUUUGAAUUCUGCUUUUCUCUACUAAUCUGAAGUGCUCCGUGAUGUGUGUAUGUGUCUUUCUAACUUCUAAUAAACUCACUCCAAC,1.47
ACUCUGUUUAGUGACUUAAUUGUAUCCCACCAAUUACUGCUGGUGACUUACUCACCCUUGUACAGUGUUUGCAUAGCAGAGUGAAGGUUACUUAUUACCCUCUUUCUCUC,0.31

# Set 5 — method: protein binding microarray; molecule type: double-stranded DNA, one strand shown; medium: in vitro; concentration: not given; baseline: not given; direction: higher = stronger binding
# Target: Histone acetyltransferase KAT6A, winged helix 2, GST fusion (KAT6A, Homo sapiens, UniProt Q92794, residues 85-181)
# Notes: 8-mer, flanks averaged, mean of 2 arrays, mostly near background
# Construct (chain): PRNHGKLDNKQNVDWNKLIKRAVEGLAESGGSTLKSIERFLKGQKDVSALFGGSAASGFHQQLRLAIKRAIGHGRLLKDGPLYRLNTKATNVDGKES
Strand,E-score
GACGATGC,0.0359
ACGAGTGG,-0.141
GTCTCTTA,-0.0723
AACCGCCG,0.0654
GGTAGTTA,-0.11
CGTCTACC,-0.184
AAAGGAGA,-0.0197
AGATGATA,0.0699
AGCGATCG,-0.0994
CACACGAG,-0.178
AGTGAGCC,-0.0898
GTCCTCCA,-0.0589
CCACATTC,-0.201
GAGATCGC,-0.0236
AGGGGAGA,-0.162
AATCCCTG,0.00434
GGAGGACC,-0.0281
GAGTGTAA,-0.00194
CAATTGCA,-0.135
ACGGGGGA,-0.0273
GGGTCTCA,-0.23
AGGTTCTG,-0.0764
AATTGGGT,0.158
AGTTCCAG,-0.0444
ACTGGATA,0.0246

# For quick reference, copied from above (set 1):
Strand,fitted relative affinity [z-score]
TTCCCTCTGCTCCTCTTTTTGTGCTAG,0.524
TCATTTTTATCAATCATACTGTGCTAG,1.56
TTAGAACTGGGGACTGGATTCGTGCTA,-0.818
TACGGTCTCGGTTTCGGGACGTGCTAG,4.01
GACGATATCGGGACTGGACACGTGCTA,0.13
TCACCATCCTGTATGGAACTGTGCTAG,1.07
TTAGGTATCCTTATCCTTTTGTGCTAG,5.32
